# Measurements of several laboratories.
# Parts stem from different laboratories: compare values within a part only. Several values in a cell are separate wells, animals, samples, runs or records.
# Chain of UniProt Q14004 (whole entry, looked up): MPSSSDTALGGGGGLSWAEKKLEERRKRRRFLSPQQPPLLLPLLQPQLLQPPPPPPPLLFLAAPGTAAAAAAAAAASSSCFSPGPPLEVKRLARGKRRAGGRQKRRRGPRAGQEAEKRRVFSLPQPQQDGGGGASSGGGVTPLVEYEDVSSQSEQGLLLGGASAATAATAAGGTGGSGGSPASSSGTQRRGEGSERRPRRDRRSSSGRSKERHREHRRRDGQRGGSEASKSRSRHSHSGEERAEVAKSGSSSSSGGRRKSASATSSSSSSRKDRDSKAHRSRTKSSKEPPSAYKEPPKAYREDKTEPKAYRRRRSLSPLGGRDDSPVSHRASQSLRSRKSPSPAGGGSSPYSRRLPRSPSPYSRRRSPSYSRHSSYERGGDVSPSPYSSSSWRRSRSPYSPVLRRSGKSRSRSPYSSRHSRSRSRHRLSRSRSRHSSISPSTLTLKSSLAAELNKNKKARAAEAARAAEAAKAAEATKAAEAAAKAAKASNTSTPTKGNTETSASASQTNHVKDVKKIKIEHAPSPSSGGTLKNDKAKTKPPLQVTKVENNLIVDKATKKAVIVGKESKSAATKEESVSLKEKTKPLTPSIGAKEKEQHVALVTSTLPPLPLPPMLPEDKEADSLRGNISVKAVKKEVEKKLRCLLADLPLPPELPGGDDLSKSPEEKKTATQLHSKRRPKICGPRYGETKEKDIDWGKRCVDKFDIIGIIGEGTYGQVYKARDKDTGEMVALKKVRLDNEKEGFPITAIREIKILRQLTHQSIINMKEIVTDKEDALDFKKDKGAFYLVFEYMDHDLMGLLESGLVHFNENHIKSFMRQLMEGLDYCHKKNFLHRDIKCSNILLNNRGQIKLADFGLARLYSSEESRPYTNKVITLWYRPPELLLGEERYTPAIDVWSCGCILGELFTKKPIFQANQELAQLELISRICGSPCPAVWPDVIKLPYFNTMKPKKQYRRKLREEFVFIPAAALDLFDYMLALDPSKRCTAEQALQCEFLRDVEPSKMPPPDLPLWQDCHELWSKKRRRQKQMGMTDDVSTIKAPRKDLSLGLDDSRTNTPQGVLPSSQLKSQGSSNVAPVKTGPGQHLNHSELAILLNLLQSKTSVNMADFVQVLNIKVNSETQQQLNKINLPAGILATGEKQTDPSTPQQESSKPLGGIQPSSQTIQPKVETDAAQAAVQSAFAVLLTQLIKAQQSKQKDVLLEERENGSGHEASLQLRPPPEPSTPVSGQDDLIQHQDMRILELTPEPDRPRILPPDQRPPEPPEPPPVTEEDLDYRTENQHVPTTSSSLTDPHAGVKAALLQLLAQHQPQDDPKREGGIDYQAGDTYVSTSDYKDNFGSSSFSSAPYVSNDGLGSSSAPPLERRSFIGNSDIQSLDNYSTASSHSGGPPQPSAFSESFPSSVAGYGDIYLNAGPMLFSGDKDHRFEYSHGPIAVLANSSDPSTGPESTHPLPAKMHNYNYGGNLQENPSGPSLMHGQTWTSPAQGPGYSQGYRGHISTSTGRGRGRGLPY
# Chain of UniProt Q9BYP7 (whole entry, looked up): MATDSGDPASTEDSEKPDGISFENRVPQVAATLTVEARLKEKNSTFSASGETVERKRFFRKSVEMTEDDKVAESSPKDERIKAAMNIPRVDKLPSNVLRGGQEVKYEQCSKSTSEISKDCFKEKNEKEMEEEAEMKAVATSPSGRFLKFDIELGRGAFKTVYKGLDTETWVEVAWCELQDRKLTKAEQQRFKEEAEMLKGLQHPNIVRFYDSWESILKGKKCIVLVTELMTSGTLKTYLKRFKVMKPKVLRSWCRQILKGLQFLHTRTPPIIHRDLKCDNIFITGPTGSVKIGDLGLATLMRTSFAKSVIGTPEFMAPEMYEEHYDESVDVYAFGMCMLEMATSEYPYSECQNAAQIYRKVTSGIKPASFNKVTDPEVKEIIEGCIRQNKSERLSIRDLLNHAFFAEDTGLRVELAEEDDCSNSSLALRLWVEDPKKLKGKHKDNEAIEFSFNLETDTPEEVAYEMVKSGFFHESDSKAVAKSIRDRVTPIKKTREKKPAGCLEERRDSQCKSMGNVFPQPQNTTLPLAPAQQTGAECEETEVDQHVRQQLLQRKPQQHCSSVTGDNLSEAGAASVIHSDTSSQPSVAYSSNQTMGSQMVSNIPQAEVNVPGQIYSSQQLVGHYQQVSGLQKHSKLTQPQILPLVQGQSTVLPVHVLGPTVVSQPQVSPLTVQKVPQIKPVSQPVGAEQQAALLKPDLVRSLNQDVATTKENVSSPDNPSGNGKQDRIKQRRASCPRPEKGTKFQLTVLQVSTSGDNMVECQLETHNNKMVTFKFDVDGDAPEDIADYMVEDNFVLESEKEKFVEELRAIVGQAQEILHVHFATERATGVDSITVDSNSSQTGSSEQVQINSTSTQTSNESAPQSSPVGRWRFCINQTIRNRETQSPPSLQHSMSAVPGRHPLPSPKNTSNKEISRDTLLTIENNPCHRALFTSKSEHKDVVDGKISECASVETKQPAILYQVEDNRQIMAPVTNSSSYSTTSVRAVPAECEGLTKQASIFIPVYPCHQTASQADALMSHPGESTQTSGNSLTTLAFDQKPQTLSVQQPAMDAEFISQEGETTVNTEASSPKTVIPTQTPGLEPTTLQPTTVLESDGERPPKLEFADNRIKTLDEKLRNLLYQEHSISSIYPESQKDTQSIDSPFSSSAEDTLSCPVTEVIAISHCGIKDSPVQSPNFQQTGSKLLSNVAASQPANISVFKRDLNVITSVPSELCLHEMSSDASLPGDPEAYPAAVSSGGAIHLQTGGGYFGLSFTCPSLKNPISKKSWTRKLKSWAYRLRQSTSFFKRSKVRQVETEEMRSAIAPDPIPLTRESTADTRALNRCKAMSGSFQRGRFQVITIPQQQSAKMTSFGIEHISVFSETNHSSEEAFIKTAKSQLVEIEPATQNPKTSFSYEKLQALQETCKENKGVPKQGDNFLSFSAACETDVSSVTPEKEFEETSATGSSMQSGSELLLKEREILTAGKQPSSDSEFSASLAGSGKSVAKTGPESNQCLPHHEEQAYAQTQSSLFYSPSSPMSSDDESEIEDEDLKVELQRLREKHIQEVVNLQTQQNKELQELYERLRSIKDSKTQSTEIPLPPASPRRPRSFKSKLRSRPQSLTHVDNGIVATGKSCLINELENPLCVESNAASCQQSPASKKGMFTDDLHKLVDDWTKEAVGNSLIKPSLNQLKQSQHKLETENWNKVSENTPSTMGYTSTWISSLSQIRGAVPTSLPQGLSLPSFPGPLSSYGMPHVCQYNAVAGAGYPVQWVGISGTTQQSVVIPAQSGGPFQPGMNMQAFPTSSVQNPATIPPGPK
# Chain of UniProt P36896 (whole entry, looked up): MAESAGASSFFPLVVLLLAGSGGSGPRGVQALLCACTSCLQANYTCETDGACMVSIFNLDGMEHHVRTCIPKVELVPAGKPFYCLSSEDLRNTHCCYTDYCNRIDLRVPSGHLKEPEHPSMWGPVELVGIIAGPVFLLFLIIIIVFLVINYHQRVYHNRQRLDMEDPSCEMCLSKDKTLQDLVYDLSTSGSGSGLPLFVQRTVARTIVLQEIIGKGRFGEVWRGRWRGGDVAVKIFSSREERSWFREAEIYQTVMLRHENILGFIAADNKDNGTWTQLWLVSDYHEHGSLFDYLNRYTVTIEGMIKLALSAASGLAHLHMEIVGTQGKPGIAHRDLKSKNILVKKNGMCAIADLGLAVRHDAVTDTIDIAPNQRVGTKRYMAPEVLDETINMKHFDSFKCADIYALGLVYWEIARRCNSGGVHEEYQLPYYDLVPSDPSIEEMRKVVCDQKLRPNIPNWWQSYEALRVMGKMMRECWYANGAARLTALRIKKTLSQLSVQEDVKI
# Chain of UniProt Q6ZN16 (whole entry, looked up): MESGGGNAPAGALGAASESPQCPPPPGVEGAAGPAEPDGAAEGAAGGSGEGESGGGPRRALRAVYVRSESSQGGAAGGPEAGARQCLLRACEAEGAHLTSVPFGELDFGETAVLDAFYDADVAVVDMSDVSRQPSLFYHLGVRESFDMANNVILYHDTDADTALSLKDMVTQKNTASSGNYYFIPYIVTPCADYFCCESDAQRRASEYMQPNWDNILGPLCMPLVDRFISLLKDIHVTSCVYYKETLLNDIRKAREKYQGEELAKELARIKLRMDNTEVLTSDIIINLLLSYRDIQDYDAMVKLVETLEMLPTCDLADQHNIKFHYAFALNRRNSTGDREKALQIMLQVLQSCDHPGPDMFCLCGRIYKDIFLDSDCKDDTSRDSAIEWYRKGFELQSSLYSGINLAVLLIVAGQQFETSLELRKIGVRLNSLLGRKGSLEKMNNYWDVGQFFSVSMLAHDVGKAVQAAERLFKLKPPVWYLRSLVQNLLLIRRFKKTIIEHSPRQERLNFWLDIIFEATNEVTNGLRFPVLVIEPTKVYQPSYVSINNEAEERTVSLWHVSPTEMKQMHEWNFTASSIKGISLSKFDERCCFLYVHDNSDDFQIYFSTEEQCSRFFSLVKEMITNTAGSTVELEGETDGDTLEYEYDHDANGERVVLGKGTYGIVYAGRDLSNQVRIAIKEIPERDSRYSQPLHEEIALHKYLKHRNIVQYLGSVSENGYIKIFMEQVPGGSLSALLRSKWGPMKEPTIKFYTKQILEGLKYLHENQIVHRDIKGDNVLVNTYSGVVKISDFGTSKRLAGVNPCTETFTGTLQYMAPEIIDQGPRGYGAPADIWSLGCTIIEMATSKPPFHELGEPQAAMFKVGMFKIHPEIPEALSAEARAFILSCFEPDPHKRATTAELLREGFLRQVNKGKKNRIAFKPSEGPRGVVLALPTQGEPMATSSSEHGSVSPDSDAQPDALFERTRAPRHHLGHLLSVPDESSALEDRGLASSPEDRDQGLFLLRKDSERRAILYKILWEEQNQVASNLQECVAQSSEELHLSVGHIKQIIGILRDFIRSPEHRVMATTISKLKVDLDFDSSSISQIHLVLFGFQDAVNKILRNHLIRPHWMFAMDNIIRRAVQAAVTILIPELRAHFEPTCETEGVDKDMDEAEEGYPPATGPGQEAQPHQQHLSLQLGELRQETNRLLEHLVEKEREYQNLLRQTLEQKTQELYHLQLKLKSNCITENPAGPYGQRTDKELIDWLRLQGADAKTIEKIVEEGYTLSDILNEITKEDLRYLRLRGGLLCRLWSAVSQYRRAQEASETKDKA

# Set 1
# Compound: Cc1nc(Cc2cccc(C(F)(F)F)c2)sc1-c1ccc(C(N)=O)nc1
# Concentration: 1 µM
target,observed,technique,remaining binding [%]
"Aurora kinase C (AURKC, Homo sapiens, UniProt Q9UQB9)",cell-free assay,competition with immobilised ligand,100
"MET (Homo sapiens, UniProt P08581, Y1235D)",cell-free assay,competition with immobilised ligand,91
"MAP2K4 (Homo sapiens, UniProt P45985)",cell-free assay,competition with immobilised ligand,100
"TXK (Homo sapiens, UniProt P42681)",binding,competition with immobilised ligand,70
"FLT3 (Homo sapiens, UniProt P36888, D835H)",cell-free assay,competition with immobilised ligand,100
"SRC (Homo sapiens, UniProt P12931)",cell-free assay,competition with immobilised ligand,80
"STK16 (Homo sapiens, UniProt O75716)",cell-free assay,competition with immobilised ligand,100
"WNK3 (Homo sapiens, UniProt Q9BYP7)",cell-free assay,competition with immobilised ligand,61
"MET (Homo sapiens, UniProt P08581, M1250T)",cell-free assay,competition with immobilised ligand,92
"Ribosomal protein S6 kinase alpha-2, N-terminal kinase domain (RPS6KA2, Homo sapiens, UniProt Q15349)",cell-free assay,competition with immobilised ligand,95
"WEE1 (Homo sapiens, UniProt P30291)",cell-free assay,competition with immobilised ligand,96
"MAP4K2 (Homo sapiens, UniProt Q12851)",cell-free assay,competition with immobilised ligand,100
"TAOK3 (Homo sapiens, UniProt Q9H2K8)",cell-free assay,competition with immobilised ligand,83
"FGFR1 (Homo sapiens, UniProt P11362)",cell-free assay,competition with immobilised ligand,83
"PIP4K2C (Homo sapiens, UniProt Q8TBX8)",binding,competition with immobilised ligand,0.3
"MARK4 (Homo sapiens, UniProt Q96L34)",cell-free assay,competition with immobilised ligand,83
"SIK2 (Homo sapiens, UniProt Q9H0K1)",cell-free assay,competition with immobilised ligand,90
"Tyrosine-protein kinase ABL1, non-phosphorylated (ABL1, Homo sapiens, UniProt P00519, F317L)",cell-free assay,competition with immobilised ligand,93
"EPHA7 (Homo sapiens, UniProt Q15375)",cell-free assay,competition with immobilised ligand,100
"ACVR1B (Homo sapiens, UniProt P36896)",cell-free assay,competition with immobilised ligand,75
"MAP3K15 (Homo sapiens, UniProt Q6ZN16)",cell-free assay,competition with immobilised ligand,100
"CDK13 (Homo sapiens, UniProt Q14004)",cell-free assay,competition with immobilised ligand,100
"BMPR1B (Homo sapiens, UniProt O00238)",cell-free assay,competition with immobilised ligand,94
"AAK1 (Homo sapiens, UniProt Q2M2I8)",binding,,96
"CSNK1A1L (Homo sapiens, UniProt Q8N752)",cell-free assay,competition with immobilised ligand,100

# Set 2
# Target: panel of 300 human kinases
# Concentration: 0.5 µM
# Direction: higher = more selective
Compound,Gini score
COc1cc2ncnc(Nc3ccc(Oc4ccccc4)cc3)c2cc1OC,0.78
COc1ccc(CNC(=O)Nc2ncc([N+](=O)[O-])s2)cc1,0.7
O=C(Nc1cccc(Nc2cc(Nc3cccc(C(F)(F)F)c3)ncn2)c1)C1CC1,0.78
C[C@@H](N)[C@H]1CC[C@H](C(=O)Nc2ccncc2)CC1,0.61
Cc1ccc(NC(=O)c2ccc(CN3CCN(C)CC3)cc2)cc1Nc1nc(-c2cccnc2)cs1,0.81
Cc1ccc(Nc2nccc(N(C)c3ccc4c(C)n(C)nc4c3)n2)cc1S(N)(=O)=O,0.71
COc1cc2ncnc(Nc3ccc(F)c(Cl)c3)c2cc1OCCCN1CCOCC1,0.69
Nc1[nH]nc2nc3ccccc3nc12,0.57
CCOC(=O)c1c(C)[nH]c(/C=C2\C(=O)Nc3ccccc32)c1C,0.57
CCN(CC)CCCCN1c2ccccc2Oc2ccc(Cl)cc21,0.77
O=C1NC(=O)C(c2cn(CCCn3ccnc3)c3ccccc23)=C1Nc1ccccc1,0.69
O=C1NC(=O)C(c2cn(CCCO)c3ncccc23)=C1c1cnccn1,0.63
N#CC(c1ccnc(NCCc2cccnc2)n1)c1nc2ccccc2s1 (stereo not shown),0.67

# Set 3
# SMILES: O=C(COc1ccccc1P(=O)(O)O)NCC(F)(F)c1cccc(F)c1
# Cell line: human islets
# Technique: qPCR
# Concentration: concentration not given
# Setting: unit not given
item,together with,relative to,mRNA level
USP8,glucolipotoxic conditions,low glucose control,1.13 and 1.07 and 1.06 and 1.56
RELA,glucolipotoxic conditions,low glucose control,1.19 and 1.05 and 1.71 and 0.664
NFATC1,high glucose (20 mM),low glucose control,0.92 and 0.438 and 0.815 and 1.3
BRAF,glucolipotoxic conditions,low glucose control,0.881 and 0.936 and 2.18 and 1.15
PIN1,low glucose,low glucose control,1.5 and 0.928 and 0.986 and 1.11
INS,20 mM glucose plus 500 µM palmitate,low glucose,6.1 and 2.85

# Set 4
# Organism: Sarcocystis neurona
# Observed: parasite growth
# Concentration: 10 µM
# Time: 96 h
# Relative to: untreated
SMILES,log2 fold change
CC(=O)O[C@]1(C(C)=O)CC[C@H]2[C@@H]3C[C@H](C)C4=CC(=O)CC[C@]4(C)[C@H]3CC[C@@]21C,0.33
Cc1nccn1CC1CCc2c(c3ccccc3n2C)C1=O (stereo not shown),0.36
CCOC(=O)C1=C(C)NC(C)=C(C(=O)OC)C1c1cccc([N+](=O)[O-])c1 (stereo not shown),-0.33
CCCOc1ccc(C(=O)OCCN(CC)CC)cc1N,0.35
COc1cc(CNC(=O)CCCC/C=C\C(C)C)ccc1O,0.46
COc1cc(-c2ccc(=O)[nH]n2)ccc1OC(F)F,0.55
Cc1c(O)c(=O)ccn1C,0.27
OCCN(CCO)c1nc(N2CCCCC2)c2nc(N(CCO)CCO)nc(N3CCCCC3)c2n1,0.33
